Values quoted from earlier work, collected from citations in different studies.
Compare with care: the assays were run in different laboratories. ± gives the spread as reported. In brackets after ≈: the same amount, converted by molar mass.

CN1CCN(c2cc(-c3ccccc3CO)c(N(C)C(=O)C(C)(C)c3cc(C(F)(F)F)cc(C(F)(F)F)c3)cn2)CC1 — AUC(0-inf) (cancer patients, plasma; oral, dose not given, netupitant-palonosetron fixed combination, added: cyclophosphamide 500-1000 mg/m^2 IV): 5820 ng·h/mL
CC(C)c1cnc(-c2cc(Cl)ccc2F)cc1Nc1ccncc1C(=O)NC(CO)CO — dose with liver findings (rat; repeat-dose toxicity, twice daily): ≥ 20 mg/kg
CCCCCCc1ccc(Oc2ccccc2C#N)c(O)c1 — volume of distribution (mouse; 40 mg/kg): 96 L/kg
C=C[C@@H]1C[C@]1(NC(=O)[C@@H]1C[C@@H](Oc2ncc(OC)c3cc(Cl)ccc23)CN1C(=O)[C@@H](NC(=O)OC(C)(C)C)C(C)(C)C)C(=O)NS(=O)(=O)C1CC1 — sinus node recovery time change (isolated perfused rabbit heart; 10 µM, time not given): 27%
CC1=C(C2=C(C)C(=O)c3c(cc(O)c(O)c3C(C)C)C2=O)C(=O)c2cc(O)c(O)c(C(C)C)c2C1=O (racemic) — degradation (rat plasma; 40 min): 23%
CC1(N(CC(=O)[O-])CC(=O)[O-])CN(CC(=O)[O-])CCN(CC(=O)[O-])C1.[Gd+3] — log K(GdL): 20.2
CC(=O)Nc1cc(Nc2cc(NC3CC3)n3ncc(C#N)c3n2)ccc1C — Cmax (rat, plasma; oral, 10 mg/kg): 300 nM
COc1cc(/N=N/c2ccc([N+](=O)[O-])cc2)ccc1N(CCS(=O)(=O)O)CCS(=O)(=O)O — pKa (water; 10 µM): 2.6
Cc1cc(C#N)cc(C)c1Oc1nc(NC2CCN(Cc3ccc(S(N)(=O)=O)cc3)CC2)nc2ccsc12 — solubility (pH 7.4): < 1 µg/mL
CC(C)CCC[C@@H](C)[C@H]1CC[C@H]2[C@@H]3CC=C4C[C@@H](OS(=O)(=O)O)CC[C@]4(C)[C@H]3CC[C@]12C — pKa (sulfate group): ~3.3
C=C[C@@H]1C[C@]1(NC(=O)[C@@H]1C[C@@H](Oc2nccc3c(OC)cccc23)CN1C(=O)[C@@H](NC(=O)OC(C)(C)C)C(C)(C)C)C(=O)NS(=O)(=O)C1CC1 — oral bioavailability (rat; oral, dose not given): 9%
Cc1ccc2c(c1)nc(CCN1C(=O)c3cccc4cccc(c34)C1=O)n2-c1ccncc1 — AUC(0-inf) (Sprague-Dawley rat; intravenous, 2.5 mg/kg): 1100 ± 215 ng·h/mL
N=S(=O)(c1ccccc1)N1CCCCC1 (centres unmarked) — recovery (sodium borate buffer; 24 h, pH 10): 100%
CCN(CC)c1ccc(-c2cc3c(s2)c(C(=O)OC)cc(=O)n3C)cc1 — absorption maximum (dichloromethane; 10 µM): 442 nm
NS(=O)(=O)c1ccc(N2N=C(C(F)(F)F)C(O)C2c2ccc(F)cc2F)cc1 (centres unmarked) — share of drug-related material (liver microsomes; concentration not given): ~7%
O=C([O-])CN1CCN(CC(=O)[O-])CCN(Cc2cc(C#Cc3ccc(OCC(=O)O)cc3)cc(C(=O)[O-])n2)CCN(CC(=O)[O-])CC1.[Eu+3] — Eu3+ luminescence lifetime: 1.1 ms
Nc1ncnc2c1ncn2C1CC(O)C(COP(=O)(O)OP(=O)(O)C(F)P(=O)(O)O)O1 (mixture of isomers) — pKa4 (refers to: bisphosphonate leaving group; aqueous solution; measured experimentally): 9
CC(C)S(=O)(=O)c1cccc(O)c(=O)c1O — pKa2: 11
CCC1=C(C)c2cc3[nH]c(cc4nc(c5c6[nH]c(cc1n2)c(C)c6C(=O)C5)[C@@H](CCC(=O)OC)[C@@H]4C)c(C)c3C(C)OCc1cccc([124I])c1 (some centres unmarked) — tumour uptake (mice with Colon 26 tumours, tumour; 24 h): 4 to 5 % injected dose
C[C@@H](OC(=O)Cc1ccc(Cl)c(SC2C(=O)CC(c3c(Cl)cccc3Cl)CC2=O)c1)c1ccccc1 (some centres unmarked) — plasma stability (plasma; ester bond hydrolysis): unstable
Cc1cc(N)nc(CC2CNCC2OCCNCC(F)(F)c2cccc(F)c2)c1 (centres unmarked) — pKa (amine next to CF2 group): 5.5
CN1CCC(C)(C)c2cc3c(-c4ccc(C(=S)N5CCCCC5)s4)c4ccc(=[N+](C)C)cc-4sc3cc21 — absorption maximum (methanol): 598 nm
O=C([O-])CN1CCN(CC(=O)[O-])CCN(CC(=O)NCC2CCC(C(=O)NC(Cc3ccc4ccccc4c3)C(=O)NCCCCC(NC(=O)NC(CCC(=O)O)C(=O)O)C(=O)O)CC2)CCN(CC(=O)[O-])CC1.[68Ga+3] (centres unmarked) — absorbed dose (human, liver; literature data): 0.029 mSv/MBq
Cc1ccccc1-c1cc(N2CC[N+](C)([O-])CC2)ncc1NC(=O)C(C)(C)c1cc(C(F)(F)F)cc(C(F)(F)F)c1 — exposure ratio (systemic circulation; relative to: metabolite over netupitant): 3%
COc1cc(-c2cncc(-c3ccc(N4CCNCC4)cc3)c2C)cc(OC)c1OC — brain/plasma ratio (SD-1 mouse male; oral, 10 mg/kg, 2 h): 0.9
COc1cc2c(O[C@@H]3OC[C@@H](OC)[C@H](OC)[C@H]3O)c3c(c(-c4ccc5c(c4)OCO5)c2cc1OC)C(=O)OC3 — body weight and lymphocyte count (healthy mice; dose not given): no effect
CCCCCCC[C@@H](CC(=O)O)OC(=O)C[C@@H](CCCCCCC)O[C@@H]1O[C@@H](C)[C@H](O)[C@@H](O)[C@H]1O — CMC (pH 8): 79 ± 3 µM
C=C[C@@H]1C[C@]1(NC(=O)[C@@H]1C[C@@H](Oc2ncc(OC)c3ccccc23)CN1C(=O)[C@@H](NC(=O)OC(C)(C)C)C(C)(C)C)C(=O)NS(=O)(=O)C1CC1 — heart rate change (isolated perfused rabbit heart; 10 µM): -8%
Oc1cccc(-c2cccc(O)n2)n1.[Cl-].[Cl-].[Ru+2].c1cnc2c(c1)ccc1cccnc12.c1cnc2c(c1)ccc1cccnc12 — pKa2: 6.8
C=C[C@@H]1C[C@]1(NC(=O)[C@@H]1C[C@@H](Oc2cc(-c3ccccc3)nc3cc(OC)ccc23)CN1C(=O)[C@@H](NC(=O)OC(C)(C)C)C(C)(C)C)C(=O)NS(=O)(=O)C1CC1 — tissue concentration (rat, liver; dose not given, 8 h post-dose): 0.6 µM
COCCOCCOCCOCCC(=O)NCc1cc(CNC(=O)CCOCCOCCOCCOC)cc(-c2cc3cc4nc(c(OC)c5[nH]c(cc6nc(cc2[nH]3)CC6(C)C)cc5-c2cc(CNC(=O)CCOCCOCCOCCOC)cc(CNC(=O)CCOCCOCCOCCOC)c2)CC4(C)C)c1 — Qy absorption FWHM (DMF; room temperature): 22 nm
Cc1ccccc1-c1cc(N2CC[N+](C)([O-])CC2)ncc1N(C)C(=O)C(C)(C)c1cc(C(F)(F)F)cc(C(F)(F)F)c1 — AUC(0-inf) (healthy volunteers, plasma; oral, 300 mg, fed, fixed-dose combination, added: palonosetron 0.5 mg): 1950 ng·h/mL
CCN(CC)C(=S)c1ccc(-c2c3ccc(=[N+](C)C)cc-3sc3cc4c(cc23)C(C)(C)CCN4C)s1 — logP (n-octanol/water): 2.7
COc1cc2c(NC3CCN(C)CC3)nc(N3CCCN(C)CC3)nc2cc1OCc1ccccc1 — kinetic solubility (aqueous buffer; pH 6.5): 50 to 100 µg/mL (≈ 102 to 204 µM)
C[C@](C#N)(COc1cc(C#N)ccc1C(F)(F)F)NC(=O)c1ccc(S(=O)(=O)C(F)(F)F)cc1 — AUC ratio (sheep, plasma; concentration not given; relative to: compound over monepantel): ~12
Cc1ccc(OCC(=O)O)cc1 — Cmax (female rat; oral, 30 mg/kg of parent drug, measured as metabolite): 9730 ng/mL
CC(C)(C)C1=CC(=NNC(=O)c2ccncc2)C=C(C(C)(C)C)C1=O — solubility (pH 6.5): 3.1 to 6.3 µg/mL (≈ 9.13 to 18.6 µM)
CC(C)OC(=O)[C@H](CO)NCc1cc(Cl)c(OCc2cccc(-c3ccccc3)c2Br)cc1OCc1cccnc1 — transformation (human liver S9; 40 min): 100%
Cc1ccccc1-c1cc(N2CCNCC2)ncc1N(C)C(=O)C(C)(C)c1cc(C(F)(F)F)cc(C(F)(F)F)c1 — Tmax (healthy volunteers, plasma; oral, dose not given, netupitant-palonosetron, fed): 15.3 h
C=CC1CC1(NC(=O)C1CC(Oc2nccc3cc(OC)ccc23)CN1C(=O)C(NC(=O)OC(C)(C)C)C(C)(C)C)C(=O)O (centres unmarked) — heart rate change (isolated perfused rabbit heart; 10 µM): -26%
CN(Cc1nc2c(N)nc(N)nc2[nH]c1=O)c1ccc(C(=O)NC(CCC(=O)O)C(=O)O)cc1 (centres unmarked) — plasma detection (patients on methotrexate; dose not given, conventional-dose methotrexate): not detected
